Assay results from different studies.
Each line is one published result; not all experiments were run side by side. Numbers after ± are the reported error. Converted amounts (≈) assume the structure as drawn.

Structure (SMILES) | assay | test system | setting | scale | endpoint | result
CCCC[C@H](NC(C)=O)C(=O)N[C@H]1CC(=O)NCCCC[C@@H](C(=O)N[C@@H](C(=O)N2CCC[C@@H]2C(N)=O)C(C)C)NC(=O)[C@H](Cc2c[nH]c3ccccc23)NC(=O)[C@H](CCCN=C(N)N)NC(=O)[C@@H](Cc2ccc3ccccc3c2)NC(=O)[C@@H]2CCCN2C1=O | – | healthy dogs, plasma | subcutaneous, 2.25 mg/kg per day, day 5 predose, median | – | plasma histamine | 12.3 ng/mL
CC(C)c1cnc(-c2cc(Cl)ccc2F)cc1Nc1ccncc1C(=O)NC(CO)CO | refers to: hypotension | human patients | oral, dose not given, grade 4 | – | patients with related SAE | 0%
O=C(CCc1ccc(CNC(C(=O)OC2CCCC2)C2CCCCC2)cn1)NO (centres unmarked) | – | human, plasma | oral, 20 mg once daily, median | relative to: day 7 over day 1 | accumulation ratio Cmax | 0.9
Cc1ccc(NCc2cn(-c3ccc(S(N)(=O)=O)cc3)nc2-c2ccc(OCc3ccccc3)cc2)cc1 | – | Wistar rat, gastric mucosa | oral, 60 mg/kg, 17 h | relative to: vehicle | ulcer severity index | 0.81 ± 0.3
COCCOCCOCCOCCOCCOCCOCCOCCC(=O)NCCCc1cc2cc3nc(cc4[nH]c(cc5nc(c(OC)c1[nH]2)C(=O)C5(C)C)cc4CCc1ccc(C(=O)O)cc1)CC3(C)C | – | water with 5% DMF | room temperature | – | integrated Qy/B absorption ratio | 0.2
CC12CC(c3ccc(S(C)(=O)=O)cc3)C3=C4CCC(=O)C=C4CCC3C1CCC2(O)C(F)(F)C(F)(F)F (centres unmarked) | – | human, plasma | intravenous, 15.7 µg | – | clearance | ~117 mL/min
Cc1[nH]nc2c1N=C(c1ccccc1Cl)c1cnc(N3CCOCC3)cc1N2 | refers to: radioactivity | human male, urine and feces | oral, 10 mg | relative to: dose | fraction absorbed | ≥ 30.9%
Cn1cc(C(N)=O)c(NC2C3CC4CC2CC(O)(C4)C3)c2ccnc1-2 (centres unmarked) | – | Japanese adults, moderate hepatic impairment, plasma | oral, 150 mg single dose | – | Tmax (median) | 4 h
COc1ccc(S(=O)(=O)N2CCc3ccccc3C2)cc1N1CCN(C(=O)c2ccc(F)cc2C(F)(F)F)CC1 | – | rat, plasma | intravenous, 10 mg/kg, 30 min, single dose | – | concentration | 963 ng/mL
O=C([O-])CN1CCN(CC(=O)[O-])CCN(CC(=O)NCC2CCC(C(=O)NC(Cc3ccc4ccccc4c3)C(=O)NCCCCC(NC(=O)NC(CCC(=O)O)C(=O)O)C(=O)O)CC2)CCN(CC(=O)[O-])CC1.[44Sc+3] (centres unmarked) | PET/CT dosimetry, OLINDA/EXM | human, liver | – | – | organ absorbed dose | 0.229 mSv/MBq
CC[C@H](C)[C@H](NC(=O)[C@H](Cc1ccccc1)NC(=O)[C@H](CCCN)NC(=O)[C@H](CCCNC(=N)N)NC(=O)[C@H](Cc1ccccc1)NC(=O)[C@H](Cc1ccccc1)NC(=O)[C@H](CCCCN)NC(=O)[C@H](CO)NC(=O)[C@H](CC(C)C)NC(=O)[C@H](CCCNC(=N)N)NC(=O)[C@H](CCSC)NC(=O)[C@H](C)N)C(=O)N[C@@H](CC(C)C)C(=O)N[C@@H](CCN)C(=O)N[C@@H](CCCNC(=N)N)C(=O)N[C@@H](CCCCN)C(=O)N[C@@H](CCCCN)C(=O)O | circular dichroism | 20% TFE in PBS | 200 µM, pH 7.4, 25 °C | – | helicity | 21.6%
CCCC[C@@H]1NC(=O)[C@@H](NC(=O)[C@H](CCC(=O)O)NC(=O)CNC(=O)CN2CCN(CC(=O)O)CCN(CC(=O)O)CCN(CC(=O)O)CC2)CCCCNC(=O)C[C@@H](C(N)=O)NC(=O)[C@H](C(C)C)NC(=O)[C@@H]2CCCN2C(=O)[C@H](CCCNC(=N)N)NC(=O)CNC(=O)[C@H](Cc2c[nH]c3ccccc23)NC(=O)[C@H](CCCNC(=N)N)NC(=O)[C@@H](Cc2ccccc2)NC(=O)[C@H](Cc2c[nH]cn2)NC(=O)[C@H](CCC(=O)O)NC1=O [gallium-67 labelled] | – | C57 mice with B16/F1 melanoma | intravenous, 0.037 MBq/mouse, 0.5 h | relative to: tumour over blood | tumour to blood ratio | 7.04
N#CC1=C(N)n2c(nnc2-c2ccccc2)NC1c1ccc(Br)cc1 (centres unmarked) | – | rat male, stomach | oral, 10 mg/kg, 4 h | – | ulcer number | 0.3 ± 0.01
Cc1ccc(OCC(=O)O)cc1 | – | Sprague-Dawley rat, female, plasma | oral gavage, 10 mg/kg of parent drug | – | Tmax | 0.63 h
CCCC(CCC)NC(=O)c1ccc(OC2OC(C(=O)O)C(O)C(O)C2O)c(O)c1 (centres unmarked) | – | female Sprague-Dawley rat, plasma | oral, 20 mg/kg of parent drug | – | Tmax | 5 h
C=CC(=O)Nc1cc(Nc2nccc(-c3cn(C)c4ccccc34)n2)c(O)nc1N(C)CCN(C)C | LC-MS | human liver microsomes | 3 µM, 60 min, added: ticlopidine 24 µM | relative to: no inhibitor | remaining parent compound | 86%
N=C(N)NCCC[C@@H]1NC(=O)[C@H](Cc2c[nH]c3ccccc23)NC(=O)[C@@H](CC2CCCCC2)NC(=O)[C@@H]2CCCN2C(=O)[C@@H](NC(=O)CCc2ccccc2)CCCNC1=O | – | C57BL/6J mouse, plasma plasma | oral, 1 mg/kg single dose | – | MRT(0-inf) | 0.907 h
CC(C)CCCC(C)CCCC(C)CCOC1OC[C@@H](O)[C@H](O)[C@H]1O (some centres unmarked) | filtration and HPLC-MS | water | room temperature | – | aqueous solubility | 31.2 ppm
NC(=O)/C=C/c1cccc(S(=O)(=O)Nc2ccccc2)c1 | – | patients with normal liver function, plasma | intravenous, 400 mg/m^2 belinostat, single 30 min infusion, cycle 1 day -7, mean | – | AUC(0-inf) | 10800 ng·h/mL

Structure (SMILES) | assay | test system | setting | scale | endpoint | result
Cn1c(=O)oc2ccc(-c3ccc(CC(C#N)NC(=O)C4CNCCCO4)c(F)c3)cc21 (centres unmarked) | – | human | oral, 10 mg once daily, treatment-related AE, multiple ascending dose | – | mouth ulceration incidence | 0%
CC(C)(Sc1cc[n+]([O-])cc1-c1ccc(C#N)c2ccccc12)C(=O)OC1OC(C(=O)O)C(O)C(O)C1O (centres unmarked) | – | adult men, plasma | oral, 15 mg verinurad, severe renal impairment | relative to: normal renal function | Cmax increase | 270%
C[C@]12C[C@H](c3ccc(S(C)(=O)=O)cc3)C3=C4CCC(=O)C=C4CC[C@H]3[C@@H]1CC[C@@]2(O)C(F)(F)C(F)(F)F | nephelometry | – | – | – | aqueous solubility | 9 µg/mL (≈ 16.5 µM)
COc1cc2c(cc1OC)CN(CCCCn1ccc3cc(OCC[18F])ccc31)C2 | – | male CD-1 mouse, liver | intravenous, 1 h | – | tracer uptake | 18.3 %ID/g
C#CCOc1ccc(/C=C2\SC(=O)N(CC(=O)NCc3ccccc3)C2=O)cc1 | inverse Kirkwood-Buff integrals | binary solvent mixture | concentration not given, 298.15 K, mole fraction x1 0.00 | – | correlation volume | 1020 cm³/mol
CC[C@H](C)[C@H](NC(=O)[C@H](N)Cc1ccc(O)cc1)C(=O)N[C@H]1CSSC[C@@H](C(=O)N(C)[C@H](C(N)=O)[C@@H](C)CC)NC(=O)[C@H](CCCNC(=N)N)NC(=O)[C@H](Cc2c[nH]cn2)NC(=O)[C@H](C)NC(=O)CN(C)C(=O)[C@H](Cc2c[nH]c3ccccc23)NC(=O)[C@H](CC(=O)O)NC(=O)[C@H](CCC(N)=O)NC(=O)[C@H](Cc2cn(C)c3ccccc23)NC(=O)[C@H](C(C)C)NC1=O | UPLC-ESI-MS | human plasma | 0.18 µg/mL, 24 h, 25 °C, bench-top after SPE | – | recovery | 99.8 ± 0.3%
CC[C@H](C)[C@H](NC(=O)[C@H](Cc1ccccc1)NC(=O)[C@H](CCN)NC(=O)[C@H](CCCNC(=N)N)NC(=O)[C@H](Cc1ccccc1)NC(=O)[C@H](Cc1ccccc1)NC(=O)[C@H](CCCCN)NC(=O)[C@H](CO)NC(=O)[C@H](CC(C)C)NC(=O)[C@H](CCCNC(=N)N)NC(=O)[C@H](CCSC)NC(=O)[C@H](C)N)C(=O)N[C@@H](CC(C)C)C(=O)N[C@@H](CCCN)C(=O)N[C@@H](CCCNC(=N)N)C(=O)N[C@@H](CCCCN)C(=O)N[C@@H](CCCCN)C(=O)O | circular dichroism | 20% TFE in PBS | 200 µM, pH 7.4, 25 °C | – | helicity | 23.6%
NC(=S)N/N=C/c1cc(Cl)ccc1O | cyclic voltammetry | anhydrous DMF | Cu2+ complex, glassy carbon electrode | – | peak potential separation | 0.159 mV
Oc1ccc2ccccc2c1/N=N/c1ccccc1 | – | extracted rat blood QC samples | 0.2 µg/L, 8 h, room temperature, short-term stability | – | measured concentration | 0.203 µg/L
CN(C)CCn1c2ccc([N+](=O)[O-])cc2c(=O)n1Cc1ccccc1 | resazurin | peritoneal macrophages, BALB/c mice | 48 h, 10% FBS | – | CC50 | 178 ± 13.9 µM
CC1=C(/C=C/C(=O)N2CCN(C(N)=O)CC2)C(C)(C)CCC1 | – | male mice, plasma | oral, 120 mg/kg | – | Cmax | 94.2 nmol/g
CC(O)c1cc(Cl)ccc1Cn1c(=S)[nH]c(=O)c2[nH]ccc21 (centres unmarked) | – | dog, both sexes, plasma | 100 mg/kg | relative to: dog over human 15 mg | exposure ratio | not detected
CC(=O)N[C@H](CCNC(=O)c1cc(NC(=O)c2cc(NC(=O)c3cc(NC(=O)c4nccn4C)cn3C)cn2C)cn1C)C(=O)Nc1cn(C)c(C(=O)Nc2cc(C(=O)Nc3cc(C(=O)Nc4cc(C(=O)NCCCN(C)CCCN[14C](=O)c5cccc([14C](=O)O)c5)n(C)c4)n(C)c3)n(C)c2)n1 | – | NSG male mice, U-251 xenograft, U-251 tumour | intraperitoneal, 20 nmol per animal, 24 h | – | tissue concentration | 0.65 mg/kg
COc1ccc2cc(-c3ccc(-c4ccc(C)cn4)nc3)oc2c1 | TCSPC | MeCN | – | – | radiative decay rate constant | 0.49 ns⁻¹
OC1(C(F)(F)F)CCN(c2nc(Nc3ccnc(C(F)(F)F)c3)nc(-c3cccc(C(F)(F)F)n3)n2)C1 (centres unmarked) | – | monkey, blood | oral, 1 mg/kg | – | oral bioavailability | 69.5%
CN1CCC[C@]1(C)/C=C/S(=O)(=O)NC(=O)Nc1c2c(cc3c1CCC3)CCC2 | – | human, plasma | oral, 50 mg twice daily, 14 days, multiple ascending dose | relative to: day 14 over day 1 | accumulation ratio AUC(0-tau) | 1.6
COc1cc(NC(C)=O)c2c(c1O)-c1c(OC)c(OC)cc3c1C(C2)N(C)CC3 (centres unmarked) | – | rat kidney homogenate | 5 µg/mL, time not given, three freeze-thaw cycles | – | remaining compound | 95.3 ± 1.1%
[2H]C([2H])([2H])NC(=O)c1ccc(N2C(=S)N(c3ccc(C#N)c(C(F)(F)F)c3)C(=O)C2(C)C)cc1F | – | healthy men | oral, 50 days, all dose groups pooled | – | adverse events | 5 occurrences
CCCC[C@H](NC(=O)CNC(=O)CNC(=O)CN1CCN(CC(=O)O)CCN(CC(=O)O)CCN(CC(=O)O)CC1)C(=O)N[C@H]1CC(=O)NCCCC[C@@H](C(N)=O)NC(=O)[C@H](Cc2c[nH]c3ccccc23)NC(=O)[C@H](CCCNC(=N)N)NC(=O)[C@@H](Cc2ccccc2)NC(=O)[C@H](Cc2c[nH]cn2)NC1=O [gallium-67 labelled] | – | C57 mice, B16/F1 melanoma | 2 h | – | tumour to skin uptake ratio | 30.4
